Measurements from different studies.
Lines come from different studies, so protocols differ. ± gives the spread as reported.
Target: Muscarinic acetylcholine receptor M2 (CHRM2, Homo sapiens, UniProt P08172)
Sequence of UniProt P08172 (whole entry, looked up): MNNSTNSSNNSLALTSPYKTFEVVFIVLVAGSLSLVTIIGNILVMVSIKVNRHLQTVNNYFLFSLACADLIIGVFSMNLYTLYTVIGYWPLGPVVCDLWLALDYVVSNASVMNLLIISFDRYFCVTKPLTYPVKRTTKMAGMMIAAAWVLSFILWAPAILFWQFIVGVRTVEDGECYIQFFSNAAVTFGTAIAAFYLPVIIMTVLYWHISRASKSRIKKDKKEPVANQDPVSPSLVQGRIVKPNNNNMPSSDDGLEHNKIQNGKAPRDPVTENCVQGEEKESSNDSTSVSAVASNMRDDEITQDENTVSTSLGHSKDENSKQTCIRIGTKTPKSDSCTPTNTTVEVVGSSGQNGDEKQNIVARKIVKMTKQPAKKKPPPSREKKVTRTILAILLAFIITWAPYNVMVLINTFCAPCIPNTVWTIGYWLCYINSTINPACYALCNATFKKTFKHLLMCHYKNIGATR

`Brc1ccccc1-c1nnc(CSc2nnnn2-c2ccccc2)o1` gave an inhibition of 10% (ligand displacement, radioligand; 10 µM).
`C=CCn1c(=O)c2ccccc2n2c(SCC(=O)OC)nnc12` has an Emax of 275 ± 11% (receptor activation, agonist; concentration not given, 16 h).
The basal binding of `CCCCCCOc1ccc(C(=O)OCCN2CC=CCC2)cc1` is reported as 1.9 ± 0.3 fold (membranes; 1 µM, 15 h, no carbachol; baseline: control).
`C=CCn1c(=O)c2ccccc2n2c(SC(C(=O)OCC)c3ccccc3)nnc12` (centres unmarked) has an Emax of 232 ± 15% (receptor activation, agonist; concentration not given, 16 h).
The inhibition of `Cc1[nH]nc2c1N=C(c1ccccc1Cl)c1cnc(N3CCOCC3)cc1N2` is reported as 1% (cell-free assay; 10 µM).
The inhibition of `COc1ccc(C#CC2=C[C@H]3C[C@@]4(OC(=O)C=C24)[C@H]2CC[C@H](C(OC)OC)N32)cc1` is reported as 1% (ligand displacement, radioligand; 10 µM).
For `O=C1c2sc(-c3ccc(N4CCC(F)C4)nc3F)nc2CCN1c1cccnc1` (centres unmarked), the inhibition was 7% (ligand displacement, radioligand; 1 µM).
For `C[Si](C)(C)C[C@H](CN)CC(=O)O`, the inhibition was 6% (ligand displacement, radioligand; 250 µM).
`C=CCn1c(=O)c2ccccc2n2c(SCC(=O)NC3CC3)nnc12` has a cooperativity factor of 3.9 ± 1 (allosteric modulator; together with: [3H]NMS).
The basal binding of `CCCCOc1ccc(C(=O)OCCN2CC=CCC2)cc1` is reported as 0.71 ± 0.04 fold (membranes; 100 µM, 15 h, no carbachol; baseline: control).
With `COc1ccc(S(=O)(=O)N2CCc3ccccc3C2)cc1N1CCN(C(=O)c2ccc(F)cc2C(F)(F)F)CC1` the inhibition was -5.1% (ligand displacement, radioligand; 1 µM).
For `C[Si]1(C[C@H](CN)CC(=O)O)CCCC1`, the inhibition was -12% (ligand displacement, radioligand; 70 µM).
`COc1ncc2nc(C)n(Cc3ncc(S(N)(=O)=O)cc3F)c2c1-c1ccccc1` gave an inhibition of 19.2% (antagonist, cell-based; 10 µM).
With `CCCCCCOc1ccc(C(=O)OCC[N+]2(C)CC=CCC2)cc1` (centres unmarked) the basal binding was 1.1 ± 0.06 fold (membranes; 10 µM, 15 h, no carbachol; baseline: control).
The Emax of `C=CCn1c(=O)c2ccccc2n2c(SCC(=O)Nc3ccc(NC(C)=O)cc3)nnc12` is reported as 280 ± 27% (receptor activation, agonist; concentration not given, 16 h).
For `CCCCOc1ccc(C(=O)OCC[N+]2(C)CC=CCC2)cc1` (centres unmarked), the basal binding was 1.17 ± 0.06 fold (membranes; 100 µM, 15 h, no carbachol; baseline: control).
The inhibition of `COc1ccc(C(=O)Nc2c(-c3cccs3)nc3ccccn23)cc1` is reported as under 50% (ligand displacement, radioligand; 10 µM).

A few entries again:
The basal binding of `CCCCOc1ccc(C(=O)OCCN2CC=CCC2)cc1` is reported as 0.71 ± 0.04 fold (membranes; 100 µM, 15 h, no carbachol; baseline: control).
With `COc1ccc(S(=O)(=O)N2CCc3ccccc3C2)cc1N1CCN(C(=O)c2ccc(F)cc2C(F)(F)F)CC1` the inhibition was -5.1% (ligand displacement, radioligand; 1 µM).
